Experimental data pooled from the literature.
Protocols differ between the studies behind these lines.

| SMILES | test | system | conditions | measurement | result |
| --- | --- | --- | --- | --- | --- |
| Cc1cn([C@H]2O[C@@H](CO[P@@](=O)(N[C@@H](C)C(=O)OC(C)C)Oc3ccccc3)[C@H](O)[C@H]2F)c(=O)[nH]c1=O |  | human | oral, 50 mg once daily, 28 days | patients with any TEAE | 67% |
| COc1ccc(-c2c(-c3ccc(C#N)c(F)c3)nc(N3CCC(N)CC3)n(C)c2=O)cc1F | measured: cauda equina syndrome | human patients | oral, 60 mg, dose expansion | patients with serious TEAE | 0% |
| C[C@@H]1OC(=O)NN=C1c1ccc(-c2ccc(F)cc2)c(C(F)(F)F)c1 | phase I trial, measured: Ascites worst grade 2 | human patients | 5 mg once daily | patients with adverse event | 0% |
| C[C@]1(O)C[C@@](N)(c2ccc(-c3nc4n(c3-c3ccccc3)COc3ccncc3-4)cc2)C1 |  | human, advanced or metastatic solid tumours | once daily, dose escalation total | patients with grade ≥3 Anemia TEAE | 11.1% |
| COc1ncnn2ccc(-c3cnc4nc(C)n(Cc5nnc([C@@H](C)F)o5)c4c3)c12 |  | human | oral, dose not given, grade 2 | patients with tumour lysis syndrome | 7.1% |
| CN(C)C(=O)c1cc2cnc(Nc3ccc(N4CCNCC4)cn3)nc2n1C1CCCC1 | measured: Pulmonary toxicity, AESI | human, HR+/HER2− advanced breast cancer | oral, dose not given, grade 3, CTCAE v4.03 | patients with adverse event | 1.2% |
| N[C@@H]1c2ccccc2OC12CCN(c1cnc3c(N4CCCc5ncccc54)n[nH]c3n1)CC2 | measured: Fatigue | human advanced or metastatic solid tumours | oral, 60 mg once daily, phase Ia pooled cohort | patients with treatment-related adverse event | 24% |
| C=CC(=O)Nc1cc(Nc2nccc(Nc3cc(Cl)c(F)cc3C(C)(C)O)n2)c(OC)cc1N1CC[C@@H](N(C)C)C1 |  | human patients | oral, 100 mg, treatment-emergent adverse events | patients with mouth ulceration | 11.1% |
| O=C1Nc2cc3[nH]nc(-c4ccncc4)c3cc2CN1Cc1ccccc1 | CTCAE v4.03 | human, relapsed or refractory advanced solid tumours | intravenous, 0.45 mg/kg, pooled schedules | patients with subretinal fluid | 0% |
| CN[C@@H](C)C(=O)N[C@H]1CN(S(=O)(=O)c2cccc(S(=O)(=O)N3CC[C@H]4CC[C@@H](C(=O)NC(c5ccccc5)c5ccccc5)N4C(=O)[C@@H](NC(=O)[C@H](C)NC)C3)c2)CC[C@H]2CC[C@@H](C(=O)NC(c3ccccc3)c3ccccc3)N2C1=O |  | human, advanced solid tumours | 30 mg | patients with treatment-related asthenia | 0% |
| Cn1nc(NS(C)(=O)=O)c2c(Cl)ccc(-n3c([C@H](Cc4cc(F)cc(F)c4)NC(=O)Cn4nc(C(F)F)c5c4C(F)(F)[C@@H]4C[C@H]54)nc4nc(OCCC(F)(F)F)ccc4c3=O)c21 | measured: LDL cholesterol grade 1 increase | human | 200 mg once daily, powder in bottle | patients with laboratory abnormality | 17% |

For quick reference, copied from above:
| SMILES | test | system | conditions | measurement | result |
| --- | --- | --- | --- | --- | --- |
| N[C@@H]1c2ccccc2OC12CCN(c1cnc3c(N4CCCc5ncccc54)n[nH]c3n1)CC2 | measured: Fatigue | human advanced or metastatic solid tumours | oral, 60 mg once daily, phase Ia pooled cohort | patients with treatment-related adverse event | 24% |
